Measurements from different studies.
Protocols differ between the studies behind these lines. ± gives the spread as reported.
uidA: Beta-glucuronidase (uidA, Escherichia coli, UniProt P05804)
pol NS2B-NS3 protease: Genome polyprotein, NS2B-NS3 protease (pol, Dengue virus type 3, UniProt Q6YMS4)
KCNJ13 M125R: Inward rectifier potassium channel 13 (KCNJ13, Homo sapiens, UniProt O60928, M125R)
SUMO-activating enzyme subunit 2 with SAE1: SUMO-activating enzyme subunit 2, with SAE1 (Homo sapiens, UniProt Q9UBT2)
Squalene synthase ERG9: Squalene synthase ERG9 (Saccharomyces cerevisiae, UniProt P29704)

Amino acid sequences for entries named in this document (tags omitted). Residues count along the entry.
UniProt P05804, whole entry: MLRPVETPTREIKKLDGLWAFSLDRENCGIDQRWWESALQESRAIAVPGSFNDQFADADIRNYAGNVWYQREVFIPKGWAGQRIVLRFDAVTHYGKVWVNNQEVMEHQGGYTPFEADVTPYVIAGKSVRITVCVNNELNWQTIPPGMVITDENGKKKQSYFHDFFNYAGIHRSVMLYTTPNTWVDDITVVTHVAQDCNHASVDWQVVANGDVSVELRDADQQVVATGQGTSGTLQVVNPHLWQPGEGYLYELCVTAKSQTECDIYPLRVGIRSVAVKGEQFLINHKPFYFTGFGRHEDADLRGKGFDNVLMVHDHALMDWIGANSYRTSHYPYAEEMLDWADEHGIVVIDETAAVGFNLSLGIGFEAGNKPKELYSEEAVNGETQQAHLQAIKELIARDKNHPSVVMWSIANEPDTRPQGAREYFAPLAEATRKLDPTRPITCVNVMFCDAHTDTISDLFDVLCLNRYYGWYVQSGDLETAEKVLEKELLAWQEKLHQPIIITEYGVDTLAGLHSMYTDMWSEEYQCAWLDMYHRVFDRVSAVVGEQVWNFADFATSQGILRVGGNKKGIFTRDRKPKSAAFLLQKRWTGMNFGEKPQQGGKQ
UniProt O60928, whole entry M125R: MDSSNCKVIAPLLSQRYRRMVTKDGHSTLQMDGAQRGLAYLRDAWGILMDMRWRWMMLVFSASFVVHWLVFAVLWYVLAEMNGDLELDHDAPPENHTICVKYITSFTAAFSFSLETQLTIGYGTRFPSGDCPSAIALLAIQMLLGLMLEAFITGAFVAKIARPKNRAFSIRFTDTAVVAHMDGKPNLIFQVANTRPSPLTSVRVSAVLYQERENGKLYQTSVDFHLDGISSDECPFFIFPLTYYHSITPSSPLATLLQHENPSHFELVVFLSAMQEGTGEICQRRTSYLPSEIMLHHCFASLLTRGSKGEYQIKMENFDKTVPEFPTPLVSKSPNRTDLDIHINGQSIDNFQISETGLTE
UniProt P29704, 1-420 limits assumed: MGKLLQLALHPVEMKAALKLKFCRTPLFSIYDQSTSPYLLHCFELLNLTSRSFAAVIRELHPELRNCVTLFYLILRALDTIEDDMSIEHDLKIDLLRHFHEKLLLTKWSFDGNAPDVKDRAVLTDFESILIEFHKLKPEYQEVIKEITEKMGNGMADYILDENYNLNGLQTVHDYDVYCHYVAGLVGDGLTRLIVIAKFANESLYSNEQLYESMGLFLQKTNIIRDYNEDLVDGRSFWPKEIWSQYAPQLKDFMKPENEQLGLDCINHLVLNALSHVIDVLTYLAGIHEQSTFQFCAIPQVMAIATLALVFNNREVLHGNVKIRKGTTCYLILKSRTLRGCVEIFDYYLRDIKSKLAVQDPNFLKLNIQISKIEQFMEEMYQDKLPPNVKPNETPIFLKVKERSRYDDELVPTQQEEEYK
UniProt P42866, whole entry: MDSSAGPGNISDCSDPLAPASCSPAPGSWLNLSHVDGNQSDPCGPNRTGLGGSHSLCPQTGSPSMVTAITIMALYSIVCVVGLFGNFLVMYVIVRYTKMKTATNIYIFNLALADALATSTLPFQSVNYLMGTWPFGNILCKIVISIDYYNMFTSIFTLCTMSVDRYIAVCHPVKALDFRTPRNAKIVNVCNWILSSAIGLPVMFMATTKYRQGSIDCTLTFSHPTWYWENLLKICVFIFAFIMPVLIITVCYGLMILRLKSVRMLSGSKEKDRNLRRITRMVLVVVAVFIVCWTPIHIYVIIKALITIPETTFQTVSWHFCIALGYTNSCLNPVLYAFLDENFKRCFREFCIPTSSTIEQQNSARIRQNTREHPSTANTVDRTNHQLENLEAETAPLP
UniProt Q07440, whole entry P104K/C113S, looked up: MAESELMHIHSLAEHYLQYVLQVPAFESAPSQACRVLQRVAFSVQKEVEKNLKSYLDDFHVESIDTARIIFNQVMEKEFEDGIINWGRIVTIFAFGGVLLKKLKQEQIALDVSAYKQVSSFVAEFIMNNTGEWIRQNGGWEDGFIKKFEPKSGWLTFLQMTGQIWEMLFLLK
UniProt P22413, whole entry: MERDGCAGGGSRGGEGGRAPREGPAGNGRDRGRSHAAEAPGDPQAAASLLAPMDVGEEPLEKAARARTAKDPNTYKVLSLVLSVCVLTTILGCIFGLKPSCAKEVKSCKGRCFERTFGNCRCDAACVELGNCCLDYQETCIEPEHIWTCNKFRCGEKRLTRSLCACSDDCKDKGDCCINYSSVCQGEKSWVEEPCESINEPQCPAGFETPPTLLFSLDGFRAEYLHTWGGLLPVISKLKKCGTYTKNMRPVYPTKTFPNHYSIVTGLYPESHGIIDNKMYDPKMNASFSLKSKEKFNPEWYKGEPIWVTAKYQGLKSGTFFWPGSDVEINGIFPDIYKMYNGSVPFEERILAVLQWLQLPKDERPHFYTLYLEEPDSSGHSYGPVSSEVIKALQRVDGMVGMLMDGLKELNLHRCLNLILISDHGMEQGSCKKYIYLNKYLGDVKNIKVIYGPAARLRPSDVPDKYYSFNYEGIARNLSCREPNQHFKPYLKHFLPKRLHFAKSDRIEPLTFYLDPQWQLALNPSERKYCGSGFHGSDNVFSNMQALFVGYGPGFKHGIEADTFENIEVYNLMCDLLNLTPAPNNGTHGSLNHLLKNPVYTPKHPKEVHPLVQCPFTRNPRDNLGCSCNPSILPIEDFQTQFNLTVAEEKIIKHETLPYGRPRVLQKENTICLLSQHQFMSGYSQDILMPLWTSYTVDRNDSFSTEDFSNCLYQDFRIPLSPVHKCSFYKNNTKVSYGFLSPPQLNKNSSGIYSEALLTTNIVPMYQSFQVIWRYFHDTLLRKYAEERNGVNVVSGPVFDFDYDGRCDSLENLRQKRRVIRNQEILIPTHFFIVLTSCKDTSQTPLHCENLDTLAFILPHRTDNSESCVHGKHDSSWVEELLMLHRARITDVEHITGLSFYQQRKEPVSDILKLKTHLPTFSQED
UniProt P08238, whole entry: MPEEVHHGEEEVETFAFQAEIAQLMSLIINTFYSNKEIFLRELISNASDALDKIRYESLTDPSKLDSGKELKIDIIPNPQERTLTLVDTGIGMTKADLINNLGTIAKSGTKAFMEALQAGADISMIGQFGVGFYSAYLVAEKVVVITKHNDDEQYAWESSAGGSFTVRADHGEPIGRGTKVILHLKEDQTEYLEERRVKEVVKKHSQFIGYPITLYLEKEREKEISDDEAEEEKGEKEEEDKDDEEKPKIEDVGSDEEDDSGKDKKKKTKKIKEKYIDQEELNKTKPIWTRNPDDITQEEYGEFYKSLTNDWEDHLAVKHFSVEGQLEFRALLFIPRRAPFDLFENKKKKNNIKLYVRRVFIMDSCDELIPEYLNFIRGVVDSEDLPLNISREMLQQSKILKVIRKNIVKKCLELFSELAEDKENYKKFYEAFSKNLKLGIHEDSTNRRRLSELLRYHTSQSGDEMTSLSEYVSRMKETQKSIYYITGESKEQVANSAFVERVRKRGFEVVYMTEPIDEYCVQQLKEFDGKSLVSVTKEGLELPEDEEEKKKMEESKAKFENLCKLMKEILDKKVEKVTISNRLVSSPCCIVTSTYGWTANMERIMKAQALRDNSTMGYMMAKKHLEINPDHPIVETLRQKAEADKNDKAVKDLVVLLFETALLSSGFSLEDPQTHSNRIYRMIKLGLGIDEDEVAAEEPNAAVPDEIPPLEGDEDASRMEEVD
UniProt P00772, 27-266 limits assumed: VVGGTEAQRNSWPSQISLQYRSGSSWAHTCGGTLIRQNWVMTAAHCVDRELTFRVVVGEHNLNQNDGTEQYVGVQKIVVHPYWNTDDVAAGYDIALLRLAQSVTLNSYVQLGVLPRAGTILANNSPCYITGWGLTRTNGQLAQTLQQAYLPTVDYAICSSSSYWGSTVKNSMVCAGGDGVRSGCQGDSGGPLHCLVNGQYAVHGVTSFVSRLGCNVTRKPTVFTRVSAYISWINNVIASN
UniProt O60603, whole entry, looked up: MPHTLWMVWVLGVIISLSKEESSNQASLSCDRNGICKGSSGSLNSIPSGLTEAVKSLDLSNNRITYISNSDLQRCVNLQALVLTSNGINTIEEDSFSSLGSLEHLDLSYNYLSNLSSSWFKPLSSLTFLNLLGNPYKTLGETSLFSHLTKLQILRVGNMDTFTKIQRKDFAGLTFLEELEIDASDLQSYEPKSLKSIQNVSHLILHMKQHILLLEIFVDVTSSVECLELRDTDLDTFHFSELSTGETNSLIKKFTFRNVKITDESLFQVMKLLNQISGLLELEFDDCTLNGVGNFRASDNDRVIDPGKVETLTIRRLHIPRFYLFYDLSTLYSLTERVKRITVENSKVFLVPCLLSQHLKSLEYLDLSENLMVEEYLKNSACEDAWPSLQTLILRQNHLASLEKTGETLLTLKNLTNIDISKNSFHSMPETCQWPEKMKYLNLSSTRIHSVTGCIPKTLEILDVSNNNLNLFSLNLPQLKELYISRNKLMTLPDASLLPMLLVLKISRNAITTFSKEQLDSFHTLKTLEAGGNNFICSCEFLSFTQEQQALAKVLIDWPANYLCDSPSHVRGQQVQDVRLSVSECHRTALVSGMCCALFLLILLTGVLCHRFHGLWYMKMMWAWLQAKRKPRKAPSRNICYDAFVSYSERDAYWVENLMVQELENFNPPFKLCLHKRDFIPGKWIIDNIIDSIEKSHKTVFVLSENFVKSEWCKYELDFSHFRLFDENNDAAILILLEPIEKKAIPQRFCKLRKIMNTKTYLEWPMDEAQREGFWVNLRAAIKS
UniProt P18654, 399-740 limits assumed: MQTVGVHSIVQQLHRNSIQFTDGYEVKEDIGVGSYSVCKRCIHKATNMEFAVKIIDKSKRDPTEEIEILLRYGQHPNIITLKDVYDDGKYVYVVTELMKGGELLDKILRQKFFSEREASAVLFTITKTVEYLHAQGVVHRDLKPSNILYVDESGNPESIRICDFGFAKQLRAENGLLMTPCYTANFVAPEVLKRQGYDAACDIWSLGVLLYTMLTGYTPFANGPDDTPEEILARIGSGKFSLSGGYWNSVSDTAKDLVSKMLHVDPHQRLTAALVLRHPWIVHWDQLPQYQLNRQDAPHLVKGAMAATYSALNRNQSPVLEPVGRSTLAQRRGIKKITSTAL
UniProt Q8E0N2, whole entry: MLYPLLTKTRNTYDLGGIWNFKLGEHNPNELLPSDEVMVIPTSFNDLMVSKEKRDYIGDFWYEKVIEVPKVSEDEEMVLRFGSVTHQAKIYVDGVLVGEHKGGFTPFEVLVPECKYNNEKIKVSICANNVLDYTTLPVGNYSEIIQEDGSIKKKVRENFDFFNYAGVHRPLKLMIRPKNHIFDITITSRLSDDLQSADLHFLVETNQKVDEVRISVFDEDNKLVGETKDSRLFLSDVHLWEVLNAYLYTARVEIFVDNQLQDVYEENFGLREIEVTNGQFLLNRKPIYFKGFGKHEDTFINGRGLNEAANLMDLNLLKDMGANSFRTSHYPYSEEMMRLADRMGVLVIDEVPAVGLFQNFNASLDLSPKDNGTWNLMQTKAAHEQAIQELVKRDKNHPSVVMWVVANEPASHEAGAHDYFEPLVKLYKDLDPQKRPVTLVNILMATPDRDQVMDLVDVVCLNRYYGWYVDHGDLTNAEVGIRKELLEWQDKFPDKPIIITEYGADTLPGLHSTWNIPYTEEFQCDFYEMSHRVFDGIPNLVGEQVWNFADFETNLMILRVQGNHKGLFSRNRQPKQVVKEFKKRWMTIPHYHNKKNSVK

SMILES	target	assay	test system	setting	IC50 [µM]
c1cc2c(nc1N1CCOCC1)sc1c(N3CCNCC3)nnnc12	uidA	enzyme activity, inhibitor			0.03 ± 0.02
CCOC(=O)/C=C1\[C@@H]2CCC[C@@]1(c1cccc(O)c1)CCN2CC1CC1CCNC(=O)c1cc2ccccc2[nH]1 (single isomer, unassigned)	Mu-type opioid receptor (Oprm1, Mus musculus, UniProt P42866)	Gi2 activation, antagonist, BRET		added: DAMGO 100 nM	5.77
CCN(CCNc1ccc(C)c2sc3ccccc3c(=O)c12)CC(C)(C)O	Bcl-2-related protein A1 (Mus musculus, UniProt Q07440, C113S/P104K)	binding, fluorescence polarization		added: FITC-Noxa peptide	334
CC(C)Oc1c(NC(=O)c2ccc(NC(=O)[C@H](CC(N)=O)NC(=O)c3cc(F)c(/N=N/c4c(Cl)cc(C#N)cc4Cl)c(F)c3)cc2)ccc(C(=O)N/N=C/c2c(F)cc(C(=O)O)cc2F)c1O	DNA gyrase (gyrA/gyrB, Escherichia coli, UniProt P0AES4+P0AES6)	DNA supercoiling, inhibitor		30 min, 37 °C, dark-adapted state	> 25
Nc1c(S(=O)(=O)Oc2ccccc2NC(=O)Cc2c[nH]c3ccccc23)ccc2ccccc12	Ectonucleotide pyrophosphatase/phosphodiesterase family member 1 (ENPP1, Homo sapiens, UniProt P22413)			added: p-nitrophenyl thymidine 5′-monophosphate	0.91 ± 0.02
O=C(c1ccc(O)c(Sc2ccccc2)c1)N1Cc2ccccc2C1	Heat shock protein HSP 90-beta (HSP90AB1, Homo sapiens, UniProt P08238)	binding, fluorescence polarization		added: FITC-geldanamycin tracer	> 100
C/C=C(\NC(=O)[C@@H](NC(=O)[C@@H](NC(=O)[C@H](C)NC(=O)C/C(C)=C/Cl)[C@@H](C)CC)[C@@H](C)O)C(=O)N[C@H]1CC[C@@H](O)N([C@@H](Cc2ccccc2)C(=O)N(C)[C@@H](Cc2ccc(O)cc2)C(=O)N[C@H](C(=O)O)C(C)C)C1=O	Chymotrypsin-like elastase family member 1 (CELA1, Sus scrofa, UniProt P00772)	enzyme activity, inhibitor		30 min, pH 7.4, 22 °C, added: MeOSuc-Ala-Ala-Pro-Val-AMC	3.08
NCc1ccc(-c2ncc(OCC3CCNCC3)nc2-c2ccc3[nH]ccc3c2)cc1	pol NS2B-NS3 protease	enzyme activity, inhibitor		dengue virus type 3 NS2B-NS3 protease	0.54 ± 0.01
COc1ccc2c(=O)oc3c(OC)cc(CCN4CCCC4)c4c(=O)oc1c2c34	Toll-like receptor 2 (TLR2, Homo sapiens, UniProt O60603)	reporter gene, antagonist, SEAP reporter	HEK-Blue hTLR2 cells	24 h, added: Pam3CSK4 100 ng/mL	5.83 ± 2.19
O=C(NC1CCN(Cc2cc(Cl)c3cccnc3c2O)CC1)c1ccc(F)cc1	KCNJ13 M125R	ion current, inhibitor, thallium flux	T-REx-HEK293		12.1
COC(=O)C1=C(C(=O)OC)C2([C@H](Cc3ccccc3)Nc3ccc(C)cc3)C=CC1O2 (some centres unmarked)	SUMO-activating enzyme subunit 2 with SAE1	SUMOylation, inhibitor, AlphaScreen		added: SUMO1-RanGAP1 conjugation	7.18
CS(=O)(=O)Cc1onc(-c2cccc(Cl)c2)c1-c1ccnc(N[C@@H]2CCN(Cc3nccs3)C2)n1	cGMP-dependent protein kinase (PKG, Plasmodium falciparum, UniProt Q8I719)	kinase activity, inhibitor, IMAP		added: ATP 10 µM, FAM-PKAtide	0.792 ± 0.115
C=CC[C@@H](Nc1ccc(Cl)cc1)C12C=CC(O1)C(C(=O)OC)=C2C(=O)OC (some centres unmarked)	SUMO-activating enzyme subunit 2 with SAE1	SUMOylation, inhibitor, AlphaScreen		added: SUMO1-RanGAP1 conjugation	3.82
N=C(N)c1ccc(OCCSCCOc2ccc(C(=N)N)cc2)cc1	Grin1/Grin2a/Grin2b, MK-801 channel binding site (Rattus norvegicus, UniProt P35439+Q00959+Q00960)			pH 7	2.2 ± 0.32
C=C(CC/C=C(\C)CCC=C(C)C)CN1[C@@H](COP(=O)(O)OP(=O)(O)O)[C@]1(C)CC/C=C(\C)CCC=C(C)C (relative stereo)	Squalene synthase ERG9	enzyme activity, inhibitor		pH 7.2, tetrabutylammonium salt, added: 100 µM [3H]FPP, no added pyrophosphate	6.9 ± 1.6
COc1cc(C)cc(Sc2cc(C(=O)N3Cc4ccccc4C3)ccc2O)c1	Heat shock protein HSP 90-alpha (HSP90AA1, Homo sapiens, UniProt P07900)	binding, fluorescence polarization		added: FITC-geldanamycin	~0.9
CC(C)=CCC/C(C)=C/CCCCN1[C@H](COP(=O)(O)OP(=O)(O)O)[C@@]1(C)CC/C=C(\C)CCC=C(C)C (single isomer, unassigned)	Squalene synthase ERG9	enzyme activity, inhibitor		pH 7.2, tetrabutylammonium salt, added: 100 µM [3H]FPP, no added pyrophosphate	18.7 ± 4.9
COc1ccc2c(c1)c(CC(=O)NCCCCNC(=O)CCC(=O)OC1CCCCC1)c(C)n2C(=O)c1ccc(Cl)cc1	Prostaglandin G/H synthase 2 (PTGS2, Homo sapiens, UniProt P35354)	enzyme activity, inhibitor	1483 HNSCC cells		0.2

SMILES	target	assay	test system	setting	IC50 [µM]
Cc1ccc(S(=O)(=O)N2CCC(C)(C(=O)Nc3ccc4cc(C(=O)O)ccc4c3)CC2)c(C)c1	Bifunctional epoxide hydrolase 2 (EPHX2, Homo sapiens, UniProt P34913)			pH 7.0, 30 °C, added: CMNPC substrate 5 µM	3.88
O=C(NO)c1ccc(F)cc1	Histone deacetylase 6, CD2 catalytic domain (hdac6, Danio rerio, UniProt F8W4B7)	enzyme activity, inhibitor, fluorogenic		30 min, added: Ac-RHK(Ac)K(Ac)-AMC	2.1 ± 0.2
CNc1nc(N2CCNCC2)c2sc3ncccc3c2n1	uidA	enzyme activity, inhibitor			0.009 ± 0.002
COc1cc(-c2n[nH]c3ccc(/C=C(\C#N)n4cncn4)cc23)cc(OC)c1OC	Ribosomal protein S6 kinase alpha-3, C-terminal kinase domain (Rps6ka3, Mus musculus, UniProt P18654)	kinase activity, inhibitor		C-terminal kinase domain	0.047
Cc1cnc(Nc2ccc(N3CCN(C)CC3)cc2)nc1Nc1cccc(NS(=O)(=O)C(C)(C)C)c1	Tyrosine-protein kinase JAK2 (JAK2, Homo sapiens, UniProt O60674)	kinase activity		added: ATP 10 µM	0.0027
COC(=O)C1=C(C(=O)OC)C2(C(Cc3ccc(F)cc3)Nc3ccccc3)C=CC1O2 (centres unmarked)	SUMO-activating enzyme subunit 2 with SAE1	SUMOylation, inhibitor, AlphaScreen		added: SUMO1-RanGAP1 conjugation	1.01
COc1ccc2c(c1)c1c(C)c3cnccc3c(C)c1n2CCN1CCOCC1	Toll-like receptor 3 (Homo sapiens, UniProt O15455)	reporter gene, SEAP reporter	HEK-Blue hTLR3	added: poly(I:C)	0.12 ± 0.01
c1nc(N2CCNCC2)c2sc3nc(N4CCOCC4)ccc3c2n1	Beta-glucuronidase (Streptococcus agalactiae serotype V, UniProt Q8E0N2)	enzyme activity, inhibitor			0.73 ± 0.07
Nc1nc2[nH]cc(Cc3ccc(C(=O)Nc4ccccc4C(=O)O)cc3)c2c(=O)[nH]1	Dihydrofolate reductase (Wuchereria bancrofti, UniProt J9F199)	enzyme activity, inhibitor			18 ± 6
NCc1ccc(-c2ncc(OCC3CCNCC3)nc2-c2ccc(-c3cn[nH]c3)cc2)cc1	pol NS2B-NS3 protease	enzyme activity, inhibitor		dengue virus type 3 NS2B-NS3 protease	0.2 ± 0.07
c1cnc2sc3c(N4CCNCC4)ncnc3c2c1	uidA	enzyme activity, inhibitor			0.019 ± 0.003
O=C(NC1CCN(Cc2cc(Cl)c3cccnc3c2O)CC1)c1ccccc1F	KCNJ13 M125R	ion current, inhibitor, thallium flux	T-REx-HEK293		9.6
O=c1ccn([C@@H]2O[C@H](COP(=O)(O)OP(=O)(O)OP(=O)(O)O)[C@@H](O)[C@]2(F)Br)c(=O)[nH]1	Genome polyprotein, NS5B polymerase (Hepatitis C virus genotype 6a, UniProt O39927)	polymerase activity, inhibitor	Hepatitis C virus, genotype 6a		0.59
Cc1cccc(C(=O)NC2CCN(Cc3cc(Cl)c4cccnc4c3O)CC2)c1	KCNJ13 M125R	ion current, inhibitor, thallium flux	T-REx-HEK293		4.2
CC(C)Cc1cc(C(=O)O)nc(O)n1	Metallo-beta-lactamase VIM-2 (VIM-2, Escherichia coli, UniProt Q5U7L7)			10 min preincubation, added: FC5 fluorogenic substrate	> 1000
O=C(COC(=O)CNC(=O)C1CCCCC1)Nc1cc(C(F)(F)F)ccc1Cl	Cruzipain (Trypanosoma cruzi, UniProt P25779)	enzyme activity, inhibitor			0.67
COc1cccc(Sc2cc(C(N)=O)c3ccccc3n2)c1	Calmodulin-domain protein kinase 1 (CDPK1, Toxoplasma gondii, UniProt Q9BJF5)	kinase activity, inhibitor, ELISA		added: syntide-2 substrate, ATP 25 µM	> 20
